{"data": "Measurements gathered from unrelated publications", "note": "Every numbered part comes from another study and shows a few of its results, in no order."}
{"data": "Sample 1", "target": "Histone acetyltransferase KAT6A, winged helix 2, GST fusion (KAT6A, Homo sapiens, UniProt Q92794, residues 85-181)", "technique": "protein binding microarray", "form": "double-stranded DNA, one strand shown", "sample": "in vitro", "tested at": "not given", "setting": "8-mer, flanks averaged, mean of 2 arrays, mostly near background", "baseline": "not given", "direction": "higher = stronger binding", "Residues (chain)": "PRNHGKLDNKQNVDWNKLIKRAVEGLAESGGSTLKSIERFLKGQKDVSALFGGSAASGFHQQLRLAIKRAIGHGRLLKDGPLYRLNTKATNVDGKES"}
{"Strand": "CCAAACAA", "E-score": 0.167}
{"Strand": "CGAGTATC", "E-score": -0.0766}
{"Strand": "CCATAAGC", "E-score": -0.0176}
{"Strand": "GGCTAAAA", "E-score": -0.188}
{"Strand": "TAAGAGTA", "E-score": 0.0102}
{"Strand": "ACTTGCCA", "E-score": -0.0369}
{"Strand": "ACTGATAC", "E-score": -0.0517}
{"Strand": "CCGCATGC", "E-score": 0.0935}
{"Strand": "AGCAGTGG", "E-score": -0.0043}
{"Strand": "CGTCGAGA", "E-score": 0.0612}
{"Strand": "CACAGTGC", "E-score": 0.0341}
{"Strand": "TCGCGGCA", "E-score": 0.155}
{"Strand": "AAATGTAT", "E-score": -0.123}
{"Strand": "AGCGGTTA", "E-score": 0.00062}
{"Strand": "AAGATCTT", "E-score": -0.167}
{"Strand": "AAACTAGA", "E-score": 0.0135}
{"Strand": "TAATCTCA", "E-score": -0.083}
{"Strand": "AAGTTATT", "E-score": 0.104}
{"Strand": "CATAATGA", "E-score": 0.0222}
{"data": "Sample 2", "target": "Fragile X messenger ribonucleoprotein 1, C-terminal low-complexity region (Fmr1, Mus musculus, UniProt P35922)", "technique": "RNA Bind-n-Seq", "form": "RNA", "sample": "in vitro", "tested at": "200 nM", "setting": "whole 134-nt RNA, ends assumed", "added": "150 mM KCl", "baseline": "input library", "direction": "higher = stronger binding", "all sequences stand within": "GGGAGUUCUACAGUCCGACGAUC … UGGAAUUCUCGGGUGUCAAGG"}
{"Strand": "AGUCCUGUGCUACACAUCGUAUGUACCGAAUCGGUUUUGGGUUUUGGGGUUUUGGGGAAAGUAUUAUGUUACGCCGUUCGGAUCUGCACU", "log2 enrichment": -0.0768}
{"Strand": "ACCAUGCAGGUGGGCAUCUUUGGGAAGUGGGGCAAGGGGGGGAUAGGGAGGGGGGUAACACUUUGGGAACAGGUGGGCCCAGGUCGUUUC", "log2 enrichment": 0.664}
{"Strand": "UGGCCCUGGUGGCAUGCGGGGAGGAAGAGGUGGCCUCAUGGAUCGUGGUGGUCCCGGUGGAAUGUUCAGAGGUGGCCGUGGUGCAGACAG", "log2 enrichment": 0.108}
{"Strand": "ACCAUGCAGGUGGGCAUCUUUGGGAAGUGGGGCAAGGGGGGGAUAGGGAGGGGGGUUACACUUUGGGAACAGGUGGUCCCAGGUCGUUUC", "log2 enrichment": 0.79}
{"Strand": "UGCUUGUGUUUCUGACAGAUUCACUGCCUUCUGAGGACUUGGAUCCUGCCGAUCCCCCGAUCUCGGUAACUGUUGGCCUGAUCUGGCUGU", "log2 enrichment": 0.306}
{"Strand": "UCCUGUGCUACACAUCGUAUGUACCGAAUCGGGGUUUUUUUGGGGUUUUUGGGGUGGGGAAAGUAUUAUGUUACGCCGUUCGGAUCUGCA", "log2 enrichment": 0.746}
{"Strand": "ACCAUGCAGGUGGGCAUCUUUGGGAAGUGGGGCAAAAAGGGGAUAGGGAGGGGGGUAACACUUUGGGAACAGGUGGUCCCAGGUCGUUUC", "log2 enrichment": 0.624}
{"Strand": "AAGUCCUGUGCUACACAUCGUAUGUACCGAAUCGGGAGGGAAAAAAAGGGUUUGGGAAAGUAUUAUGUUACGCCGUUCGGAUCUGCACUU", "log2 enrichment": 0.73}
{"Strand": "UGUGCUACACAUCGUAUGUACCGAAUCGGGGCCCCCCCGGGCCCCCCCGGGCCCCCCCGGGGAAAGUAUUAUGUUACGCCGUUCGGAUCU", "log2 enrichment": -1.83}
{"data": "Sample 3", "target": "RING finger protein unkempt homolog, zinc fingers 1-6, GST-SBP tag (UNK, Homo sapiens, UniProt Q9C0B0, residues 30-357)", "technique": "RNA Bind-n-Seq", "form": "RNA", "sample": "in vitro", "tested at": "not given", "setting": "RNA with constant flanks, human and mouse sites, ends assumed", "baseline": "input RNA pool", "direction": "higher = stronger binding", "all sequences stand within": "GGGAGUUCUACAGUCCGACGAUC … CAACAGAGGAUUGAGCAUCA", "chain of UniProt Q9C0B0 (30-357, looked up)": "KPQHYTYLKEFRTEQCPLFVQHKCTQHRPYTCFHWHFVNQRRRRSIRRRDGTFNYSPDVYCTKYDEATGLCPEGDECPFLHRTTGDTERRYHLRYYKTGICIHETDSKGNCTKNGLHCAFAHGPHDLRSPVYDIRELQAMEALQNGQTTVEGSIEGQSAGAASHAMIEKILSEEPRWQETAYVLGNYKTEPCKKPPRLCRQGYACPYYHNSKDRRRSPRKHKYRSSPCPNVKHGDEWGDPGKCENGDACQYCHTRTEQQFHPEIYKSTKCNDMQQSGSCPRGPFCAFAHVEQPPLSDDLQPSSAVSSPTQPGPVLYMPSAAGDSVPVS"}
{"Strand": "ACAGCUAUCUGGAACUUACUCGUUACAACAGGGCGAGAAGUUAAAUAUGACUUGUUGGUUAGCAAUGCAAUUCAGUUUCUGGCUUCAGUUUGUGAAAGGCCACAUUAUAAGAAUCUGUUU", "bound/input enrichment [ratio]": 0.5}
{"Strand": "GAGGAAAUGAGUCUCAACCAGAAAGCCAGGAAGACCCUCGGGAAGUACUUAAAAAAACAUUGGAAUUCUGCUUAUCUAGGGAGAAUCUUGCUAGCGACAUGUACCUUAUAUCCCAGAUGG", "bound/input enrichment [ratio]": 0.321}
{"Strand": "UCUUUUCCUCUGUAUUUACAUAUACUUUAUGUAUCAAGUGUGUGUGUGUAUGUGUGUGCUUUUAGCUCCAAGCAAACCUGAGUUUGGAUAAAGGGGAACUAAACUACAAAUUAUGUCUAU", "bound/input enrichment [ratio]": 0.182}
{"Strand": "GAUGUAGAAAAAUUUUGUAACAGUGUAGUCGAUCUGUAUUCAAAUCUUAGUAAGCCAUUUUUAGACAUAGUUUUGUAUAUCUUUAAGUUAACGAGUGCAAUUGGAGCUCAGGGCCCAGCG", "bound/input enrichment [ratio]": 49.1}
{"Strand": "CUGCAGUAAAACACAGAAGGCUUUAAAAUGUUUUCUUGCAUAAAAUUCAAAACUUUUAAGUAGCUGCUUAUGAGAAUAGGGAAGGCAGAAAGCUAAUGUCUGUCUCAAGAUACAGGACAG", "bound/input enrichment [ratio]": 0.173}
{"Strand": "UAAUAAAACCAUUUUAUCUUUAAAAUAGUAAGUAGAAAUCUAAAUAAAUUUUAUGAGUAGGCAGUAACUUUUCUGUUUAGUGAGUGUACUUGCUUUGCUCUUAUCAUUGGUCUUACCUUU", "bound/input enrichment [ratio]": 5.43}
{"Strand": "AAAUCCUGGAAGGGCUUAAUCCAGGCCUUACUGGAUGCUGCUAUUGAUUUUGAUCUUUUAGAAGACGAGGAAAGCAAAAAGUUUCAGAAGUGUCUCCAUGAAGACAAGAACCUCGUCCAU", "bound/input enrichment [ratio]": 0.261}
{"Strand": "GCCAUUUUCCCAGAUGGGACGCACAACGACACAUGGCAGUGCCAAGGCUACUUCACUGCACUAGAACAAUUUAUCAAGGAAGUGAUCAAGAGUCAUUCUCCCGAAGACAUGACAAAAACA", "bound/input enrichment [ratio]": 1.19}
{"data": "Sample 4", "target": "Protein C-ets-1 (ETS1, Homo sapiens, UniProt P14921, residues 1-441, Y397A, full length assumed)", "technique": "protein-binding microarray", "form": "double-stranded DNA, one strand shown", "sample": "in vitro", "tested at": "not given", "setting": "k-mer, scored over probes, only values ≥0.25", "direction": "higher = stronger binding", "Residues (chain)": "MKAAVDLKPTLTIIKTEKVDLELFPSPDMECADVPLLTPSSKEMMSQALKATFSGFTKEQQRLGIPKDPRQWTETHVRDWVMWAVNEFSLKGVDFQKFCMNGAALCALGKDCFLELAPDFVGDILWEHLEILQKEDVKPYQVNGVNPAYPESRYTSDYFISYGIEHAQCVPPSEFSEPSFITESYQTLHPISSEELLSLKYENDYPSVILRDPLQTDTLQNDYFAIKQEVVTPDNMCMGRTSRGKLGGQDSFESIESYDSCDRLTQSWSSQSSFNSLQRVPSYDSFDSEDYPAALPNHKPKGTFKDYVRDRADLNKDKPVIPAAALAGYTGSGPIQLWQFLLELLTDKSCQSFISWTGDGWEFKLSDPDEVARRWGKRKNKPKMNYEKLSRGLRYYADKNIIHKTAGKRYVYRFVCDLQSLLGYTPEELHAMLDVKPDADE"}
{"Strand": "CAAACGAC", "E-score": 0.26}
{"Strand": "CAAAATGC", "E-score": 0.284}
{"Strand": "GTGGGGTA", "E-score": 0.263}
{"Strand": "GGAAGTTA", "E-score": 0.314}
{"Strand": "TGTTACAA", "E-score": 0.267}
{"Strand": "TACGAGTA", "E-score": 0.258}
{"Strand": "GAAACACA", "E-score": 0.252}
{"Strand": "AAGTGTAC", "E-score": 0.26}
{"Strand": "TATTGCCA", "E-score": 0.277}
{"Strand": "GTTGCCAA", "E-score": 0.354}
{"Strand": "GCATGTCA", "E-score": 0.282}
{"Strand": "GACAAAAC", "E-score": 0.407}
{"Strand": "GACACACC", "E-score": 0.273}
{"data": "Sample 5", "target": "RNA binding protein fox-1 homolog 2, RRM domain, GST-SBP tag (RBFOX2, Homo sapiens, UniProt O43251-10, residues 100-194)", "technique": "RNA Bind-n-Seq", "form": "RNA", "sample": "in vitro", "tested at": "365 nM", "setting": "natural RNA segment, single round, ends assumed", "baseline": "no-protein control", "direction": "higher = stronger binding", "all sequences stand within": "GGGAGUUCUACAGUCCGACGAUC … UGGAAUUCUCGGGUGCCAA", "Construct (chain)": "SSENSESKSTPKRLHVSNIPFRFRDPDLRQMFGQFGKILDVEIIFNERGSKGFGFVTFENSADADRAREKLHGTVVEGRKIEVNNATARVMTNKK"}
{"Strand": "AAGAUUGUCAGCUUCAGUAUUCAUGUUCCAUCGUGUCAUCUGGGUCUGUUAGUGUAGUGACCCUCAGUGCAGUCUGUCCCAGCGUUUACGUCCUUGCUUCCUCUGAGCAG", "RBNS enrichment (R)": 0.344}
{"Strand": "UAUUUUGUACUGUAAUGAAUGUGAGUCACUCAGCUGCUUACCUGAACAUAACCUUAUGCUGCCCUUGGCUUGGCCACAUUUGUUAAAUCCUUAUUAUAUUGAUACUCUUC", "RBNS enrichment (R)": 0.726}
{"Strand": "AGCUCUGGGGCUGGCUGUCCUCCGCUCUGCGCCUGUCAGGCAGGGCACGUGCUCACAGCCCUGGGUUGAUUUAUUUUUUUAAGGGGGGUAGUUUUAUUUUGGUGGGGCUG", "RBNS enrichment (R)": 4.13}
{"Strand": "AUAAGUGCUAAGCUUAUUCUUUGGGCUUUGGGUGGCAAUUUUCAGUGAGGUAUUAAAUAUAUCUGAUACCUGAUGGGGCUGUGCCCCAUCCAGCCCUCAAAGUAGUCUCU", "RBNS enrichment (R)": 0.259}
{"Strand": "CCCCAGUCAUUGCUGUCUGCAAGUGAUGCGCAUUUAAGUGUUUAAUCUCCUGGGAGCAGGGCACAGGGAAGACUAUGAGGAGAGCUAAUGUGGUCUGUACAAGGACACUG", "RBNS enrichment (R)": 0.467}
{"Strand": "GGCUGUUCUUACUGUCCAAAUGAAGCUAAAAAGAAAGGCAUCUUUCUUCCCUUUUAAAAUUGUGUAAACUGCAAAUUAUAAUAUAAUUUGAAUUUAUGAUUAUUUUCCAG", "RBNS enrichment (R)": 0.373}
{"Strand": "ACGUGCUAGAAACCGAUGACUUAUUAAUCUCUAAUUUUUUGGCGCCUCUUUCAUUGAAUGAGAAUUGCUUUCGUAUAGUUCACAUUAGAAAAAUGCCUAAUAUACUAAAG", "RBNS enrichment (R)": 0.475}
{"Strand": "AAAGUUUCAUUCUGUCAGAAAUAAGCCAUAGUACAGACUCAGAGAUAGAGGCAGUUUCUAGAGAACUCGGUCUUAUCGUGGGUUCUGGAGCACACCUCUCAGACCAGUCA", "RBNS enrichment (R)": 0.297}
{"note": "Excerpt of the above (sample 1):"}
{"Strand": "CCGCATGC", "E-score": 0.0935}
{"Strand": "CATAATGA", "E-score": 0.0222}
{"Strand": "TCGCGGCA", "E-score": 0.155}
{"Strand": "AAGTTATT", "E-score": 0.104}
{"Strand": "ACTGATAC", "E-score": -0.0517}
{"Strand": "AAGATCTT", "E-score": -0.167}
{"Strand": "AAACTAGA", "E-score": 0.0135}
